Measurements of several laboratories.
Compare with care: the assays were run in different laboratories. ± marks the error that the study gave.

SMILES | test | system | setting | Cmax
C[C@@H](N)C1CCN(S(=O)(=O)c2cccc3cnccc23)CC1 | – | healthy volunteers, plasma | oral, 150 mg, fed, single dose | 18.5 ng/mL
C[C@@H]1CCO[C@H]2Cn3cc(C(=O)NCc4ccc(F)cc4F)c(=O)c(O)c3C(=O)N12 | population PK, post-hoc | children, 20 to <25 kg, plasma | oral, 30 mg dispersible tablet, steady state, geometric mean | 6620 ng/mL
O=C(c1cccnc1-c1ccncc1)N1CCC(O)(Cc2ccccc2)CC1 | – | healthy Japanese adults, plasma | oral, 600 mg single dose, arithmetic mean | 3280 ng/mL
O=C(O)c1cc(O)c(O)c(O)c1 | – | broiler chickens, serum | oral, in feed, 2000 mg/kg feed, 24 h, corn diet, no tannins | 360 ± 80 nM
COc1nnc2ccc(N3CCC(c4ccc(OCCN5CCN(C)C(=O)[C@H]5C)cc4)CC3)nn12 | – | patients, plasma | oral, 15 mg twice daily, multiple dose, monotherapy | 106 nM
OC[C@H]1O[C@@H](c2ccc(F)c(Cc3cc4ccccc4s3)c2)[C@H](O)[C@@H](O)[C@@H]1O | – | Japanese type 2 diabetes patients, plasma | oral, 25 mg/day, day 14 | 694 ± 174 ng/mL
CCc1nc2c(C)cc(N3CCN(CC(=O)N4CC(O)C4)CC3)cn2c1N(C)c1nc(-c2ccc(F)cc2)c(C#N)s1 | – | healthy volunteers, plasma | oral, 600 mg once daily multiple doses | 10600 ng/mL
N[C@@H]1c2ccccc2OC12CCN(c1cnc3c(N4CCCc5ncccc54)n[nH]c3n1)CC2 | – | advanced metastatic solid tumour patients, plasma | oral, 40 mg once daily, cycle 1 day 15, geometric mean | 624 ng/mL
CCCCCCCOc1ccc(CCC(N)(CO)CO)cc1C(F)(F)F.Cl | – | healthy men, plasma | oral, 0.25 mg, day 21 | 1.87 ng/mL
C[C@H](NC(=O)/C(C#N)=C/c1cccc(Br)n1)c1ccccc1 | LC-MS/MS | patients, plasma | oral, 2 mg/kg, cycle 1 day 8 | 31.8 ng/mL

Some of these lines once more:
SMILES | test | system | setting | Cmax
O=C(O)c1cc(O)c(O)c(O)c1 | – | broiler chickens, serum | oral, in feed, 2000 mg/kg feed, 24 h, corn diet, no tannins | 360 ± 80 nM
